Measured values pooled from the literature.
Parts stem from different laboratories: compare values within a part only.
UniProt Q16816, sequence (whole entry, looked up): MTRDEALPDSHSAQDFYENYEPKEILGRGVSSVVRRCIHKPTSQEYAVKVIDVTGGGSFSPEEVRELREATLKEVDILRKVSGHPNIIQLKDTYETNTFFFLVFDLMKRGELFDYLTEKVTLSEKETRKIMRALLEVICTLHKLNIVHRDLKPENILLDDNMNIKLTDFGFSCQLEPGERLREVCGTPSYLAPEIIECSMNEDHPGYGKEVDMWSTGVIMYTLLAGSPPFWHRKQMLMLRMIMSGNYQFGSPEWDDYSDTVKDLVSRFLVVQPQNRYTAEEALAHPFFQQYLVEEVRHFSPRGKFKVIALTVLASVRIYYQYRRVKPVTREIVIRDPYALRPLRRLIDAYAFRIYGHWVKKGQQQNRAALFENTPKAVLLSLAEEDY
UniProt P17948, sequence (whole entry, looked up): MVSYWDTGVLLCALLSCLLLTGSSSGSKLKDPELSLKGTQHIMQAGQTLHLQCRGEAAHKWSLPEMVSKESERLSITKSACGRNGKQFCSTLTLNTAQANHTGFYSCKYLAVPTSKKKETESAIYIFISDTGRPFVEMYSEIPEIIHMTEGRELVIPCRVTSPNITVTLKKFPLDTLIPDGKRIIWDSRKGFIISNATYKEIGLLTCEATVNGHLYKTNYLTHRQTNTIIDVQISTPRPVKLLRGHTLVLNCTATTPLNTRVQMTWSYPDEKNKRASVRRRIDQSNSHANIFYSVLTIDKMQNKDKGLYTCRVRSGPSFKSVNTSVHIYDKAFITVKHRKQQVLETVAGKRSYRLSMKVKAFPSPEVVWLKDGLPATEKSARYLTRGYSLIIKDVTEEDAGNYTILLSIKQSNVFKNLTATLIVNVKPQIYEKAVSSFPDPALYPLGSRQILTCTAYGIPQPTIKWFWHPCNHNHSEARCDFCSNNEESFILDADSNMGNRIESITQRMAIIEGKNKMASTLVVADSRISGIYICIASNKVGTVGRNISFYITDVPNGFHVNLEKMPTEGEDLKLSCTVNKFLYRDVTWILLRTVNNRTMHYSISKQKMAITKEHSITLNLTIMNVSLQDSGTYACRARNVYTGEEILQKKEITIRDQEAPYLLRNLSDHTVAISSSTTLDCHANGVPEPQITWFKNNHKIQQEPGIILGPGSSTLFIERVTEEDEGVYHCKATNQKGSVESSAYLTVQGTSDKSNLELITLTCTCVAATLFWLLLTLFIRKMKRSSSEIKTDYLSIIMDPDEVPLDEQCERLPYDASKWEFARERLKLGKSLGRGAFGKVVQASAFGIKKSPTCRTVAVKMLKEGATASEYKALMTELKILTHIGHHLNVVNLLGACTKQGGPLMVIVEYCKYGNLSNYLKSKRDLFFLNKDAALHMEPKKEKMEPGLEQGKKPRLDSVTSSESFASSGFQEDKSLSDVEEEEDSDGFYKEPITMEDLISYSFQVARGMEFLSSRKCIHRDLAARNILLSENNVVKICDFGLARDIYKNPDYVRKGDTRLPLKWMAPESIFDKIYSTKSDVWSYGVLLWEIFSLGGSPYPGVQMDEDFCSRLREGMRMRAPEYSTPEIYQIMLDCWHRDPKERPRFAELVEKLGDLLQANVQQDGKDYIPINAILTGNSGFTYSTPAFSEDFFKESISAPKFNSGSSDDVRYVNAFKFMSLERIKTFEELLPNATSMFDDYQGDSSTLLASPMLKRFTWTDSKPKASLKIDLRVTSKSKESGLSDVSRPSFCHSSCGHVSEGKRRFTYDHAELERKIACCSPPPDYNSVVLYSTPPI
UniProt P42336, sequence (whole entry, unmodified, looked up): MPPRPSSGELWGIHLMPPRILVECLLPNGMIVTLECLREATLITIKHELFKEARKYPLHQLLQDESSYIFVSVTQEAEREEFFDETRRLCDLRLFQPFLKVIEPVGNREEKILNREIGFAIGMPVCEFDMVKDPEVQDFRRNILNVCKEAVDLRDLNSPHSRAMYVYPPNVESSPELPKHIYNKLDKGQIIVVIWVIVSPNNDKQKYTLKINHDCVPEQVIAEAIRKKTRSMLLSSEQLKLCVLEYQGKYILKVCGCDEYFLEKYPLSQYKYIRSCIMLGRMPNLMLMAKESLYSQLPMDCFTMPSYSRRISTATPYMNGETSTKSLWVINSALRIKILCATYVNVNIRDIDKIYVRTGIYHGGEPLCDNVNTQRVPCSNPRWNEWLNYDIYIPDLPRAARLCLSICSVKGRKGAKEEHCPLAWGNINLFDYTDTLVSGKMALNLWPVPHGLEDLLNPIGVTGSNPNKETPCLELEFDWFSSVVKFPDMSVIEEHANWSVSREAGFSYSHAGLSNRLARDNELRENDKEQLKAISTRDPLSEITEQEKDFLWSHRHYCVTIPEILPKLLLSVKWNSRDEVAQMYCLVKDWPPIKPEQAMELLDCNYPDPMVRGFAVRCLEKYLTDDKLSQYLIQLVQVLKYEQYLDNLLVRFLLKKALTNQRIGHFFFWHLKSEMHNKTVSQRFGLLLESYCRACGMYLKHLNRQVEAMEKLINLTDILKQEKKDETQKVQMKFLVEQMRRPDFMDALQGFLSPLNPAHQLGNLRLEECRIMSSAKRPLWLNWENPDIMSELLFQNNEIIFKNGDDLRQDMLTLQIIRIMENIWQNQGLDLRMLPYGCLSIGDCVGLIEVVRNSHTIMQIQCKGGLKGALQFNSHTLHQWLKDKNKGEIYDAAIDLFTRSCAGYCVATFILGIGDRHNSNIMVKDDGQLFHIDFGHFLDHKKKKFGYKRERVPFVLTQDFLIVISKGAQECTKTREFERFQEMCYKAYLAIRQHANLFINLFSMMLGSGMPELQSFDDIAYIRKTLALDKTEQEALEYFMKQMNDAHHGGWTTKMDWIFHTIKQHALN
UniProt O94804, sequence (whole entry, looked up): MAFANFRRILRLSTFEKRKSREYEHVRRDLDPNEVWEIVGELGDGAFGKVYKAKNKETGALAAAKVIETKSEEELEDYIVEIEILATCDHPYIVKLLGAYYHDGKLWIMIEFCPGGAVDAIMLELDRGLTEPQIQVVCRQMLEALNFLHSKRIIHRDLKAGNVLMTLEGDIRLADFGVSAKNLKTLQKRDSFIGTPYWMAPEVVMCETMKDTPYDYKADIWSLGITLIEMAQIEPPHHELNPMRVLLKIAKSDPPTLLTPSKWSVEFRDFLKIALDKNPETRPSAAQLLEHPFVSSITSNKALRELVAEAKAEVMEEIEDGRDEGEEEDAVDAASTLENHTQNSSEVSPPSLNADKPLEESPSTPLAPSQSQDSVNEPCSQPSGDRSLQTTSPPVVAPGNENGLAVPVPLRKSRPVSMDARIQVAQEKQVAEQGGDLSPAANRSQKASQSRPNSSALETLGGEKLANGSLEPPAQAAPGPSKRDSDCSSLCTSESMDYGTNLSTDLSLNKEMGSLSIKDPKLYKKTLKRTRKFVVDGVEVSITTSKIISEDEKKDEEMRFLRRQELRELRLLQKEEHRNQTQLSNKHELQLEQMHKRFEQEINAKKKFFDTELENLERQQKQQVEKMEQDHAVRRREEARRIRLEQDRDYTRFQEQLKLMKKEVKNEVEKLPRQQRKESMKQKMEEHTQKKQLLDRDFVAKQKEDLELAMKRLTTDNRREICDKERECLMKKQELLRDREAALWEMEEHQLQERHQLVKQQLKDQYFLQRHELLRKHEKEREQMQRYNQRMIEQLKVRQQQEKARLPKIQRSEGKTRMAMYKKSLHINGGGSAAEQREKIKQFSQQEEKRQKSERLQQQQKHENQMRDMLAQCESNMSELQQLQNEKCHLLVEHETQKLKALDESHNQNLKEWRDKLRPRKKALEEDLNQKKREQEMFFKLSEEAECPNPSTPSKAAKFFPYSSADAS
UniProt Q84WU6, sequence (whole entry, looked up): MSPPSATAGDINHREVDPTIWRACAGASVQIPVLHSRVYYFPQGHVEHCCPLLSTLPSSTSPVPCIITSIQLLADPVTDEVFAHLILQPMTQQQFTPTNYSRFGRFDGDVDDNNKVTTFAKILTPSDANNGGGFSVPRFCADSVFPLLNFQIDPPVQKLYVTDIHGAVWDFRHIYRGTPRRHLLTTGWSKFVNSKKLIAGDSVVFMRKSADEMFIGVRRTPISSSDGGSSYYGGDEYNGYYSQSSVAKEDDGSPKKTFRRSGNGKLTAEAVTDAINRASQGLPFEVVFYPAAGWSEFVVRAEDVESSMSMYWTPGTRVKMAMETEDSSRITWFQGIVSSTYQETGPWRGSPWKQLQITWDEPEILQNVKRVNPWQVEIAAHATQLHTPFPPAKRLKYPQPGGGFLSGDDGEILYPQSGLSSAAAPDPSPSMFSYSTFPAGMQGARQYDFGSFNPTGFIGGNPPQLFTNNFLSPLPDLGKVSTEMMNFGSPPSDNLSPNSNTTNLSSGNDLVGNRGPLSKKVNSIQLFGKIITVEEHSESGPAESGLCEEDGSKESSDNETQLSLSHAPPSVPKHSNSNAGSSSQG

Block 1 — effect on: cell-free assay; technique: competition with immobilised ligand; concentration: 1 µM
SMILES: O=C(NCc1ncc(C(F)(F)F)cc1Cl)c1ccc2c(c1)C1(CCS(=O)(=O)CC1)[C@H](C1CC1)N2S(=O)(=O)c1ccc(F)cc1
target | remaining binding
Ribosomal protein S6 kinase alpha-3, C-terminal kinase domain (RPS6KA3, Homo sapiens, UniProt P51812) | 100%
Phosphorylase b kinase gamma catalytic chain, skeletal muscle/heart isoform (PHKG1, Homo sapiens, UniProt Q16816) | 100%
Ribosomal protein S6 kinase alpha-6, C-terminal kinase domain (RPS6KA6, Homo sapiens, UniProt Q9UK32) | 87%
Serine/threonine-protein kinase 10 (STK10, Homo sapiens, UniProt O94804) | 54%
Vascular endothelial growth factor receptor 1 (FLT1, Homo sapiens, UniProt P17948) | 98%
Serine/threonine-protein kinase OSR1 (OXSR1, Homo sapiens, UniProt O95747) | 87%
Dual serine/threonine and tyrosine protein kinase (DSTYK, Homo sapiens, UniProt Q6XUX3) | 76%
Homeodomain-interacting protein kinase 4 (HIPK4, Homo sapiens, UniProt Q8NE63) | 100%
Tyrosine-protein kinase Mer (MERTK, Homo sapiens, UniProt Q12866) | 100%
Phosphatidylinositol 4,5-bisphosphate 3-kinase catalytic subunit alpha isoform (PIK3CA, Homo sapiens, UniProt P42336, H1047Y) | 90%
Receptor-type tyrosine-protein kinase FLT3 (FLT3, Homo sapiens, UniProt P36888, K663Q) | 100%

Block 2 — host: mouse; matrix: microsomes or S9; concentration: 2 µM; time: 0.5 h
Structure (SMILES) | remaining compound [%]
Nc1ccc(Sc2nccc(-c3cccs3)n2)cc1 | 44.9
COc1ccc(C(=O)N2CCn3c(nnc3[C@@H]3C[C@@H](O)CN3C(=O)C(C)C)C2)c(C)c1 | > 100
Cc1oc(C)c(C(=O)OC(C)C(=O)N2CC(C)OC(C)C2)c1Br (centres unmarked) | 0.67
CC(Nc1ncnc2c1NC(=O)CN2)c1cc2ccccc2nc1-c1ccccc1 (centres unmarked) | 0.882

Block 3 — technique: Spec-seq; form: double-stranded DNA, one strand shown; matrix: in vitro; concentration: not given; notes: whole probe, mean of replicates; reference: not given; reading: lower = stronger binding; shared flanks, not repeated: GAGTCGTCTCGTCAGCAC … CCGTAGAGCACTCAGGTC
Target: POU domain, class 5, transcription factor 1, POU domain (Pou5f1, Mus musculus, UniProt P20263, residues 131-289)
UniProt P20263, sequence (131-289, looked up): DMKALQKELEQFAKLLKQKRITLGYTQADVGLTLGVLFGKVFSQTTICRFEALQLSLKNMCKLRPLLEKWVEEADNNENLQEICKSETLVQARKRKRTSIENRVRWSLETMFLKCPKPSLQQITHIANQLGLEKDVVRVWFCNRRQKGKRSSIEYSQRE
Strand | relative binding energy [ln ratio]
ACATTAAT | -0.137
ATGTAGAT | -1.14
ATGCAATA | -0.211
ATGCGCGA | 0.344
GGCGTAAT | 0.576
ATGCGTGC | 0.357
ATCTAGAT | 0.486
ATGCTATA | 0.343

Block 4 — SMILES: C=CCc1ccc(O)c(-c2ccc(O)c(CC=C)c2)c1; effect on: chloride current; technique: whole-cell voltage clamp
target | mode | concentration | notes | IC50 [µM]
Anoctamin-1 (ANO1, Homo sapiens, UniProt Q5XXA6, del476-501/F628W) | inhibitor | 20 mV holding voltage |  | 12.3
Anoctamin-1 (ANO1, Homo sapiens, UniProt Q5XXA6, del476-501/F623A) |  |  | membrane voltage 40 mV | 8.47
Anoctamin-1 (ANO1, Homo sapiens, UniProt Q5XXA6, del476-501/R631K) | inhibitor |  | R605K mutant at 60 mV | 7.4

Single results of other studies
ADRB1: Beta-1 adrenergic receptor (ADRB1, Homo sapiens, UniProt P08588)
UniProt P08588, sequence (whole entry, looked up): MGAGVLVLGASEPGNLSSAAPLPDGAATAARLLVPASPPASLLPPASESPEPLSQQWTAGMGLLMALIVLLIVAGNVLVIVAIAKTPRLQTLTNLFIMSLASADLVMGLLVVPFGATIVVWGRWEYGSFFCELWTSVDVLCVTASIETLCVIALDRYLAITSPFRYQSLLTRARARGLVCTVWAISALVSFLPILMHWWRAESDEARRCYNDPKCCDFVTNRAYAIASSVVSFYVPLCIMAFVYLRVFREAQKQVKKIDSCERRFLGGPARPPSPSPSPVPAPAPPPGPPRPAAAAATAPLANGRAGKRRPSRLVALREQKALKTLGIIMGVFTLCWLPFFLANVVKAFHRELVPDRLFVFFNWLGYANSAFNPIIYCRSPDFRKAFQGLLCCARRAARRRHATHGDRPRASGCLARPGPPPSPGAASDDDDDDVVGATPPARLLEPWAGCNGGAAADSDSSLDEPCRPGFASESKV
Molecule | target or system | assay | setting | how to read | quantity | value
Cn1cc(-c2cnc(Nc3cccnc3)c3c2CCO3)cn1 | ADRB1 | antagonist |  |  | IC50 | ≥ 100 µM
ARF17 (Arabidopsis thaliana, UniProt Q84WU6) | ARF19 948-1086 (Arabidopsis thaliana, UniProt Q8RYC8) | two-hybrid | weak activation fusion | reference: out of 4 tests, higher = firmer interaction | positive tests | 0
COc1ccccc1N1CCN(c2nc3c(C)cccn3c(=O)c2C=O)CC1 | ADRB1 | antagonist |  |  | IC50 | ≥ 100 µM
